Results collected from several papers.
Numbered parts are unrelated; each lists some results of a single study.
Chain of UniProt Q32MK0 (whole entry, looked up): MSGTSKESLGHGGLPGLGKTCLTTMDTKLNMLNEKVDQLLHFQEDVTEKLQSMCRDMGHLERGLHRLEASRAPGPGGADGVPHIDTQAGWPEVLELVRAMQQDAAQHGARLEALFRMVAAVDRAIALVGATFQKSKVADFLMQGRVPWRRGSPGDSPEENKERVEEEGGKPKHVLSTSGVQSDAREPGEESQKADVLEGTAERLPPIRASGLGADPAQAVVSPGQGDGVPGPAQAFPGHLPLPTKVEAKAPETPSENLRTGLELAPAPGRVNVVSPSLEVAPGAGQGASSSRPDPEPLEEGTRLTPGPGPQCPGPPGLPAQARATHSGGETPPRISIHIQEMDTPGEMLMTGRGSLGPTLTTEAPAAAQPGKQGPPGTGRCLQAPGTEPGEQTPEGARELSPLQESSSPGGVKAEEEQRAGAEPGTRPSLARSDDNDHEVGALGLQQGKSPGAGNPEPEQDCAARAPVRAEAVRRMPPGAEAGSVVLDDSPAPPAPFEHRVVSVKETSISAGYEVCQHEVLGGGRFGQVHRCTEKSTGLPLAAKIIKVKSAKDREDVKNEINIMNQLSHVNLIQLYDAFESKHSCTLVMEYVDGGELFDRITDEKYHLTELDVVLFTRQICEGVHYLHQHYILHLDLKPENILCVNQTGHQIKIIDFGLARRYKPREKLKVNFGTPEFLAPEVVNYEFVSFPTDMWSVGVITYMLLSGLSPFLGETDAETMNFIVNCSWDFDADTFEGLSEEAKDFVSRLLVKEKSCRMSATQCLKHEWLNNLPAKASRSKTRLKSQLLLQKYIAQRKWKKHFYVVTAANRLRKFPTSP

Block 1
Target: Myc proto-oncogene protein, bHLH-zipper, MAX partner unstated (MYC, Homo sapiens, UniProt P01106, residues 368-449)
Chain of UniProt P01106 (368-449, looked up): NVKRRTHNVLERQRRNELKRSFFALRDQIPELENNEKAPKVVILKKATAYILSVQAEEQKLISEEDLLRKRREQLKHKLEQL
Method: protein-binding microarray
Molecule type: double-stranded DNA, one strand shown
Sample: in vitro
Concentration: not given
Notes: k-mer, scored over probes, only values ≥0.25
Direction: higher = stronger binding
Sequence | E-score
ACATGCTC | 0.408
ACGCGAGA | 0.269
ACGTTGCG | 0.259
ACCTCGAG | 0.307
CAACCATG | 0.366
CCCACCAC | 0.327
CATGACAA | 0.271
ACGTGTCG | 0.441

Block 2
Target: Cyclic AMP-dependent transcription factor ATF-1, full length (ATF1, Homo sapiens, UniProt P18846, residues 1-271)
Method: protein-binding microarray
Molecule type: hairpin DNA
Sample: in vitro
Concentration: not given
Notes: whole hairpin DNA, median over replicate spots
Relative to: not given
Direction: higher = stronger binding
Shared flanks, not repeated: GAGGCCG … CGGCCTCACACTC
Residues (chain): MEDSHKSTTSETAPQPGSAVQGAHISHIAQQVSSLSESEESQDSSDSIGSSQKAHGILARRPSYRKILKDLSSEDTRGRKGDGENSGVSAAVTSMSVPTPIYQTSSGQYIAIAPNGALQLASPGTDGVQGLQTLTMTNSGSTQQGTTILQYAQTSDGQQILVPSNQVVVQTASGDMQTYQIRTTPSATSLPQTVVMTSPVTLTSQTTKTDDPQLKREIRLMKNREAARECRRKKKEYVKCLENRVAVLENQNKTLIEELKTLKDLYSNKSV
Sequence | median fluorescence [a.u.]
GATGGCGTCAGCCTCCTGGCTGACGCCATC (5mC at 33) | 10600
GCTGACGTCCGCCTCCTGGCGGACGTCAGC (5mC at 17) | 5110
GATTACGTCAGCCTCCTGGCTGACGTAATC | 6930
CCGACGTCGTGCCTCCTGGCACGACGTCGG (5mC at 9 15 29 35) | 4490
ACGACGTGGTGCCTCCTGGCACCACGTCGT (5mC at 9 29 35) | 5370
ACGATGTCGTGCCTCCTGGCACGACATCGT (5mC at 9 15 29 35) | 3050
GCTGACGTCAGCCTCCTGGCTGACGTCAGC (5mC at 34) | 5570
GATCGCGTCAGCCTCCTGGCTGACGCGATC | 4260

Block 3
Target: POU, POU domain (Salpingoeca helianthica)
Method: Spec-seq
Molecule type: double-stranded DNA, one strand shown
Sample: in vitro
Concentration: not given
Notes: whole probe, mean of replicates
Relative to: not given
Direction: lower = stronger binding
Shared flanks, not repeated: GAGTCGTCTCGTCAGCAC … CCGTAGAGCACTCAGGTC
Target sequence (chain): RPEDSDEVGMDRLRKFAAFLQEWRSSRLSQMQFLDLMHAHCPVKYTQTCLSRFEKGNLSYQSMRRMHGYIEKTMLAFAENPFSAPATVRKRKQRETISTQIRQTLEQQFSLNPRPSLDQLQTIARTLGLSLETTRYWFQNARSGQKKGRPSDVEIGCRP
Sequence | relative binding energy [ln ratio]
TAGATAAT | 0.124
ATCTAGAT | 1.13
ATGCAGAC | 1.49
ACATTAAT | -0.02
ATGCAGCG | 1.41
ATCAAGAT | 0.992
ATGCGACT | 1.05
ATGTAGAT | 1.15

Other studies, line by line
Structure (SMILES) | target | test | conditions | measurement | value
O=C(NS(=O)(=O)c1ccc(NCC2CCOCC2)c([N+](=O)[O-])c1)c1ccc(N2CCN(Cc3ccc(C(F)(F)F)cc3-c3ccc(Cl)cc3)CC2)cc1Oc1cnc2[nH]ccc2c1 | Myosin light chain kinase (MYLK3, Homo sapiens, UniProt Q32MK0) | cell-free assay, competition with immobilised ligand | 1 µM | remaining binding | 100%

For quick reference, copied from above (block 1):
Sequence | E-score
CATGACAA | 0.271
ACCTCGAG | 0.307
ACGTGTCG | 0.441
